{"data": "Measurements pooled from the literature", "CTSL": "Procathepsin L (CTSL, Homo sapiens, UniProt P07711)", "DRD3": "D(3) dopamine receptor (DRD3, Homo sapiens, UniProt P35462)", "note": "Each line is one published result; not all experiments were run side by side.", "chain of UniProt P07711 (whole entry, looked up)": "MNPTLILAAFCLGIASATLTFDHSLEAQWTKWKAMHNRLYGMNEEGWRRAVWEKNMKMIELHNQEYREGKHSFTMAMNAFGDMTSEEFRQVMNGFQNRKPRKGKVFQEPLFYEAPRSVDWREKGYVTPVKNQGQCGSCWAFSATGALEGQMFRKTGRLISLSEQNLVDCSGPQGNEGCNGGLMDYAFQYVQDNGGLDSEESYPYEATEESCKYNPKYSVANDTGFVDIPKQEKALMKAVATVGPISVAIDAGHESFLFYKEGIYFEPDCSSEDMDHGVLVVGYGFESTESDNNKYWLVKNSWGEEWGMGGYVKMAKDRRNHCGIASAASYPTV", "chain of UniProt P35462 (whole entry, looked up)": "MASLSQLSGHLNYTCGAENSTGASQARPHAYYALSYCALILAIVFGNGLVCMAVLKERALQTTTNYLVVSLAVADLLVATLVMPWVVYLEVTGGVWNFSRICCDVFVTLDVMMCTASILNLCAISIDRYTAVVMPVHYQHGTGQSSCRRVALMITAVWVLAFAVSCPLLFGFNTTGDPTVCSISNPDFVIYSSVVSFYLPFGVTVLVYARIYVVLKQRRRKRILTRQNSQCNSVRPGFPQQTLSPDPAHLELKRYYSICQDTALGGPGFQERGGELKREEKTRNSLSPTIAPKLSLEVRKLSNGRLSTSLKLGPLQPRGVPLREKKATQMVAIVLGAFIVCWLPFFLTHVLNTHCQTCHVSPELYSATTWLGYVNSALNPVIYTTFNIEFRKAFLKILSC", "chain of UniProt Q9H2G2 (whole entry, looked up)": "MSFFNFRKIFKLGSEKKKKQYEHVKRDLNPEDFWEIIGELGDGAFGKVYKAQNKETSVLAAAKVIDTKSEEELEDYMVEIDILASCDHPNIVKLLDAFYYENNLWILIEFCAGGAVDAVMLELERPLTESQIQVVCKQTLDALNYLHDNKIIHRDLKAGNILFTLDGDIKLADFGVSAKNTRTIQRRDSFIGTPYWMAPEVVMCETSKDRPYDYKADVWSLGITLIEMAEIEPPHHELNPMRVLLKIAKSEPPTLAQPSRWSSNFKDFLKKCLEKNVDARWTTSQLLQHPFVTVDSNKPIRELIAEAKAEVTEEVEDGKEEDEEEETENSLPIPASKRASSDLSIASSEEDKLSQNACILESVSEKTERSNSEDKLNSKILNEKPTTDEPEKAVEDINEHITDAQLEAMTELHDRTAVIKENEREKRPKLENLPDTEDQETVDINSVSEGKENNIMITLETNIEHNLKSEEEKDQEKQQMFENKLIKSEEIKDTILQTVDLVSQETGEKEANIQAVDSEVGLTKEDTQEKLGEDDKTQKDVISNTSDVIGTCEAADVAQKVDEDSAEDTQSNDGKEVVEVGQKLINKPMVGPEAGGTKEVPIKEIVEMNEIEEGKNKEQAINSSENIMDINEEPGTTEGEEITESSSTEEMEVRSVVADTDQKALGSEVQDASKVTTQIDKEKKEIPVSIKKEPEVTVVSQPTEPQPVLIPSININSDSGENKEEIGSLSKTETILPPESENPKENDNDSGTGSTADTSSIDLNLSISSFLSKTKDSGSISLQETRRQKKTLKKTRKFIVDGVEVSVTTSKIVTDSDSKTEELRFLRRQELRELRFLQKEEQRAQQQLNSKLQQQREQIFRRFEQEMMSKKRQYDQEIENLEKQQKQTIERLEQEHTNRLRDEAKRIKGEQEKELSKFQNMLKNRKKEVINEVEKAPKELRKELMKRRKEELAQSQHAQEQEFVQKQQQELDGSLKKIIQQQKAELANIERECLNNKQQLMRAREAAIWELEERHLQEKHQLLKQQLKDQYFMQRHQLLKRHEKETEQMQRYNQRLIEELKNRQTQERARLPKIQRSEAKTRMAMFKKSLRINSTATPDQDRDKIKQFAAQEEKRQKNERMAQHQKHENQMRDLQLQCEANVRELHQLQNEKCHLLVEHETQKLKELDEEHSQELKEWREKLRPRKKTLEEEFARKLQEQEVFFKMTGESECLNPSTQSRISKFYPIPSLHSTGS", "chain of UniProt Q9Y2R2 (whole entry, looked up)": "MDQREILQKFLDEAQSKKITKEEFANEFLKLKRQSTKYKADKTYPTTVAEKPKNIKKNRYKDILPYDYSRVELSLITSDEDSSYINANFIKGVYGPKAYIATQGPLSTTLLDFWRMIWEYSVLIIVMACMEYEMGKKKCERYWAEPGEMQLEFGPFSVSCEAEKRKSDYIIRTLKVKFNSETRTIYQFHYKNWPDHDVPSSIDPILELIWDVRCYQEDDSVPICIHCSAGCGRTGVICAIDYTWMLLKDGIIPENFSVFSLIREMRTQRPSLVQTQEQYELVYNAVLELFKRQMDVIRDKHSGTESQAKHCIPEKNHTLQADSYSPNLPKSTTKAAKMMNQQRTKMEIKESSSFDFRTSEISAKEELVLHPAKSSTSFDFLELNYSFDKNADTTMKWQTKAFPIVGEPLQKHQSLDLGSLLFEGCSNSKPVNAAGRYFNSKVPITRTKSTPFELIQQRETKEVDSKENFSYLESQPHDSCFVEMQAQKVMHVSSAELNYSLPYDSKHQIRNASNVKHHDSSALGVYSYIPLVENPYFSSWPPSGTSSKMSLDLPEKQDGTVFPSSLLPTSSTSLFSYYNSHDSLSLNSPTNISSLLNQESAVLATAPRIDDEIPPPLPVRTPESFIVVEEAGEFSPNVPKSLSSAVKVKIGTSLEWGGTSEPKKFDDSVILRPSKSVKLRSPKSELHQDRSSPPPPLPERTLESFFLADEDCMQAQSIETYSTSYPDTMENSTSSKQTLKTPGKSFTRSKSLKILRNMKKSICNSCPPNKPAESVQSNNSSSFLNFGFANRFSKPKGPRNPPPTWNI", "chain of UniProt P54760 (whole entry, looked up)": "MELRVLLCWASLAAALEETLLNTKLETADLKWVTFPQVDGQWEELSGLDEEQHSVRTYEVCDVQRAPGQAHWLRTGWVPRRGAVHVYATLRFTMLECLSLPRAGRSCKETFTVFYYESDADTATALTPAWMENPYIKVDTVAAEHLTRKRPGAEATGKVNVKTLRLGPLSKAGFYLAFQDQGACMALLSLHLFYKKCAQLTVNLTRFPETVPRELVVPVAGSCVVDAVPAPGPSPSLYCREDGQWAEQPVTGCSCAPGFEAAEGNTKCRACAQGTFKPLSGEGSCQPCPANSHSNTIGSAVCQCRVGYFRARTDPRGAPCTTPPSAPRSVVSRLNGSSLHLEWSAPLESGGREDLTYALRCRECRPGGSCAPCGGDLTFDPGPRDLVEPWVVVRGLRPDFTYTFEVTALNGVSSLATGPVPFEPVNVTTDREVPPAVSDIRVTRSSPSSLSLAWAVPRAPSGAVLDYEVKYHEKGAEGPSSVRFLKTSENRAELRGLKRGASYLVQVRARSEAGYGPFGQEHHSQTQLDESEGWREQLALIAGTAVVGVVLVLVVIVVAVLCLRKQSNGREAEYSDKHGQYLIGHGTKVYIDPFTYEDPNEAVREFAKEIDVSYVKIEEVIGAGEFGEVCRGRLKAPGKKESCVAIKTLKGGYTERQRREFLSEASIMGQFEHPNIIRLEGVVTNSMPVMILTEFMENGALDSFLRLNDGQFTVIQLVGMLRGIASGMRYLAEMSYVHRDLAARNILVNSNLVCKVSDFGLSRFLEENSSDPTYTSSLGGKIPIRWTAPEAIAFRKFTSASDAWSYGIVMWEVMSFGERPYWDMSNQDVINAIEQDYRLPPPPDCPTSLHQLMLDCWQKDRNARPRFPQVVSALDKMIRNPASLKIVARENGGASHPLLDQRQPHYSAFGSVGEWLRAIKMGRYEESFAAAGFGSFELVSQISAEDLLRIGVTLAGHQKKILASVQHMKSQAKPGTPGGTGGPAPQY", "chain of UniProt Q00537 (whole entry, looked up)": "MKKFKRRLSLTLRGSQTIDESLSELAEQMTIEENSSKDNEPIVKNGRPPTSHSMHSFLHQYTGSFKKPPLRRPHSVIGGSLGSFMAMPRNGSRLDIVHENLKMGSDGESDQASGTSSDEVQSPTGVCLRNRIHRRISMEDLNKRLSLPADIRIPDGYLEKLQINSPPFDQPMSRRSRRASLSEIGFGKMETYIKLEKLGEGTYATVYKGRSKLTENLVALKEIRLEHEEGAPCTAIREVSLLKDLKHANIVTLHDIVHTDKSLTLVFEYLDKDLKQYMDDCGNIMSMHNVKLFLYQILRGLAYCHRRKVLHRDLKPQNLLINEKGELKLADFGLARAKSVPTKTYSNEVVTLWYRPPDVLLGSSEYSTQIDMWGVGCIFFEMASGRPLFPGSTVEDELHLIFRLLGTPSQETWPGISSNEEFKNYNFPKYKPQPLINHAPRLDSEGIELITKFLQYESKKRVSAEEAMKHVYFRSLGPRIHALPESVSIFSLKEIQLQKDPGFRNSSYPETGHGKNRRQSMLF", "chain of UniProt O15075 (whole entry, looked up)": "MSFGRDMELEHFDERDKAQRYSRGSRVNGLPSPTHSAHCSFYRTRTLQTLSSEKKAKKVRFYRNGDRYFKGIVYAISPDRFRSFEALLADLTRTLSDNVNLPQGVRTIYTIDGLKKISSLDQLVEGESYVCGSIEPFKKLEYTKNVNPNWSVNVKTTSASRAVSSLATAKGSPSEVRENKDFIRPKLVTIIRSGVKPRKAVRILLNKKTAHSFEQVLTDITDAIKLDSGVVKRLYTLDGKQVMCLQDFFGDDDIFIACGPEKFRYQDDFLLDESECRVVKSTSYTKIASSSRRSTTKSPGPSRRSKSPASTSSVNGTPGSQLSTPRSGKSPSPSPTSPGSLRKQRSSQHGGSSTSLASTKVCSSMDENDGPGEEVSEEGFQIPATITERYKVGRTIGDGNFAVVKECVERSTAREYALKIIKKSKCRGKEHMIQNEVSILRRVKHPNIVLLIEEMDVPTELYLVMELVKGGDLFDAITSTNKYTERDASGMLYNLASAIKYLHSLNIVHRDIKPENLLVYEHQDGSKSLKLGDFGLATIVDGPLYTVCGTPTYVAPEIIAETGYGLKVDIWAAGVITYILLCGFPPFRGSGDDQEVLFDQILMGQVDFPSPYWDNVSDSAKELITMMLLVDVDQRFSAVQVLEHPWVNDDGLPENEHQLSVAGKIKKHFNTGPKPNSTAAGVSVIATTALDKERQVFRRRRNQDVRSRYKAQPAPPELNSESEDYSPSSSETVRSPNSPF"}
{"SMILES": "C1=C/COCc2cc(ccc2OCCN2CCCC2)Nc2nccc(n2)-c2cccc(c2)COC/1", "target": "Ephrin type-B receptor 4 (EPHB4, Homo sapiens, UniProt P54760)", "assay": "binding", "conditions": "0.1 µM", "endpoint": "remaining binding", "value": "100%"}
{"SMILES": "COc1ccc(O)cc1", "target": "CTSL", "assay": "enzyme activity, inhibitor", "conditions": "100 µM", "endpoint": "remaining activity", "value": "104%"}
{"SMILES": "COc1cc(-c2cncc3c2CN(C)Cc2cc(N4CCNCC4)ccc2-3)cc(OC)c1OC", "target": "Casein kinase I isoform gamma-3 (CSNK1G3, Homo sapiens, UniProt Q9Y6M4)", "assay": "enzyme activity, inhibitor", "conditions": "1 µM", "endpoint": "remaining activity", "value": "104%"}
{"SMILES": "CNc1ncc2c(/C=C/C(=O)N3CCC(OC)CC3)nn(Cc3cccc(C(F)(F)F)c3)c2n1", "target": "Cyclin-dependent kinase 17, with p35 (CDK17, Homo sapiens, UniProt Q00537)", "assay": "enzyme activity, inhibitor, radiometric", "conditions": "1 µM", "endpoint": "remaining activity", "value": "101%"}
{"SMILES": "CCc1ccc(NS(=O)(=O)c2c(C)[nH]c(C)c2C(=O)N2CCCC2)cc1Cl", "target": "DRD3", "assay": "β-arrestin recruitment, agonist", "conditions": "90 min", "endpoint": "Emax", "value": "81%"}
{"SMILES": "O=C1CSC(=S)N1NC(=S)SSC(=S)NN1C(=O)CSC1=S", "target": "Tyrosine-protein phosphatase non-receptor type 22 (PTPN22, Homo sapiens, UniProt Q9Y2R2)", "assay": "enzyme activity, inhibitor, fluorescence", "endpoint": "kinact", "value": "0.004 s⁻¹"}
{"SMILES": "CCCCC(=O)Nc1ccc(-c2ccc3ncn(CCC)c(=O)c3c2)cn1", "target": "Serine/threonine-protein kinase MRCK alpha (CDC42BPA, Homo sapiens, UniProt Q5VT25)", "assay": "binding, competition with immobilised ligand", "conditions": "0.5 µM", "endpoint": "remaining binding", "value": "100%"}
{"SMILES": "C=CC(=O)N1CCC(COCC(=O)N2CCN(c3nc(-c4cnc(N)nc4C(F)F)nc(N4CCOC[C@@H]4C)n3)CC2)CC1", "target": "STE20-like serine/threonine-protein kinase (SLK, Homo sapiens, UniProt Q9H2G2)", "assay": "binding, competition with immobilised ligand", "conditions": "1 µM", "endpoint": "remaining binding", "value": "82%"}
{"SMILES": "Cc1cc([C@@H](C)Nc2ccccc2C(=O)O)c2nc(N3CCC(F)(F)CC3)c(C#N)c(=O)n2c1", "target": "Serine/threonine-protein kinase DCLK1 (DCLK1, Homo sapiens, UniProt O15075)", "assay": "binding, competition with immobilised ligand", "conditions": "1 µM", "endpoint": "remaining binding", "value": "100%"}
{"SMILES": "Cc1cc(O)c2c(=O)c3c(O)cc(O)c4c5c(O)cc(O)c6c(=O)c7c(O)cc(C)c8c1c2c(c34)c(c78)c65", "target": "CTSL", "assay": "enzyme activity, inhibitor", "conditions": "100 µM", "endpoint": "remaining activity", "value": "32.5%"}
{"SMILES": "COc1cc(-c2cc(C(C)=O)n3ccccc23)c(OC)cc1CO", "target": "Bromodomain-containing protein 9 (BRD9, Homo sapiens, UniProt Q9H8M2)", "assay": "thermal stability, DSF", "conditions": "200 µM", "endpoint": "ΔTm", "value": "8.5 °C"}
{"SMILES": "O=C(/C=C/c1ccc(O)cc1)c1ccc(O)cc1O", "target": "CTSL", "assay": "enzyme activity, inhibitor", "conditions": "100 µM", "endpoint": "remaining activity", "value": "61.5%"}
{"SMILES": "CC[C@H](C)[C@H](NC(=O)[C@H](CCC(N)=O)NC(=O)[C@H](CC(C)C)NC(=O)[C@H](CCSC)NC(=O)[C@H](CCCCN)NC(=O)[C@H](CO)NC(=O)[C@H](CO)NC(=O)[C@H](CCSC)NC(=O)[C@H](CC(C)C)NC(=O)[C@H](CC(N)=O)NC(=O)[C@@H](NC(=O)[C@@H](NC(=O)[C@H](CO)NC(=O)[C@H](CC(C)C)NC(=O)[C@H](CS)NC(=O)[C@H](CCCNC(=N)N)NC(=O)[C@H](CC(=O)O)NC(=O)[C@H](Cc1c[nH]c2ccccc12)NC(=O)[C@H](Cc1ccccc1)NC(=O)[C@H](C)NC(=O)[C@H](CCC(=O)O)NC(=O)[C@@H](N)CCCCN)C(C)C)[C@@H](C)CC)C(=O)N[C@@H](CC(N)=O)C(=O)N[C@@H](C)C(=O)O", "target": "Glycogen synthase kinase-3 beta (GSK3B, Homo sapiens, UniProt P49841)", "assay": "enzyme activity, inhibitor, radiometric", "conditions": "500 µM, 20 min", "endpoint": "remaining activity", "value": "124%"}
{"SMILES": "CC(=O)CCc1ccccc1", "target": "CTSL", "assay": "enzyme activity, inhibitor", "conditions": "100 µM", "endpoint": "remaining activity", "value": "95.4%"}
{"SMILES": "CN(c1nccc(-c2cnn3ncccc23)n1)C1CC1", "target": "Atypical kinase COQ8A, mitochondrial (COQ8A, Homo sapiens, UniProt Q8NI60)", "assay": "cell-free assay", "conditions": "1 µM", "endpoint": "remaining signal", "value": "100%"}
{"SMILES": "O=Cc1ccc(O)cc1", "target": "CTSL", "assay": "enzyme activity, inhibitor", "conditions": "100 µM", "endpoint": "remaining activity", "value": "64.5%"}
{"SMILES": "Nc1ncnc2occ(-c3ccc(NC(=O)Nc4cc(C(F)(F)F)ccc4F)cc3)c12", "target": "Tyrosine-protein kinase ABL1, phosphorylated (ABL1, Homo sapiens, UniProt P00519, T315I)", "assay": "cell-free assay, inhibitor", "conditions": "20 µM", "endpoint": "remaining signal", "value": "3.3%"}
{"SMILES": "Cc1coc2c1C(=O)C(=O)c1c-2ccc2c1CCCC2(C)C", "target": "CTSL", "assay": "enzyme activity, inhibitor", "conditions": "100 µM", "endpoint": "remaining activity", "value": "63.8%"}
{"SMILES": "CCNC(=O)c1c(C)[nH]c(C)c1S(=O)(=O)Nc1ccc(C(F)(F)F)c(Cl)c1", "target": "DRD3", "assay": "β-arrestin recruitment, agonist", "conditions": "90 min", "endpoint": "Emax", "value": "108%"}
{"note": "Excerpt of the above:"}
{"SMILES": "COc1cc(-c2cc(C(C)=O)n3ccccc23)c(OC)cc1CO", "target": "Bromodomain-containing protein 9 (BRD9, Homo sapiens, UniProt Q9H8M2)", "assay": "thermal stability, DSF", "conditions": "200 µM", "endpoint": "ΔTm", "value": "8.5 °C"}
{"SMILES": "C=CC(=O)N1CCC(COCC(=O)N2CCN(c3nc(-c4cnc(N)nc4C(F)F)nc(N4CCOC[C@@H]4C)n3)CC2)CC1", "target": "STE20-like serine/threonine-protein kinase (SLK, Homo sapiens, UniProt Q9H2G2)", "assay": "binding, competition with immobilised ligand", "conditions": "1 µM", "endpoint": "remaining binding", "value": "82%"}
